Measurements pooled from the literature.
Organism: Candida albicans

Structure (SMILES) = CC[C@H](C)[C@H](NC(=O)CN)C(=O)NCC(=O)N[C@@H](C)C(=O)N[C@H](C(=O)N[C@@H](CC(C)C)C(=O)N[C@@H](CCCCN)C(=O)N[C@H](C(=O)N[C@@H](CC(C)C)C(=O)N[C@H](C(=O)N[C@H](C(=O)NCC(=O)N[C@@H](CC(C)C)C(=O)N1CCC[C@H]1C(=O)N[C@@H](C)C(=O)N[C@@H](CC(C)C)C(=O)N[C@H](C(=O)N[C@@H](CO)C(=O)N[C@@H](Cc1c[nH]c2ccccc12)C(=O)N[C@H](C(=O)N[C@@H](CCCCN)C(=O)N[C@@H](CCCNC(=N)N)C(=O)N[C@@H](CCCCN)C(=O)N[C@@H](CCCNC(=N)N)C(=O)N[C@@H](CCC(N)=O)C(=O)N[C@@H](CCC(N)=O)C(N)=O)[C@@H](C)CC)[C@@H](C)CC)[C@@H](C)O)[C@@H](C)O)C(C)C)C(C)C; assay = broth microdilution; test system = SP 3931, RPMI-1640; conditions = 48 h, 30 °C; MIC = 4 µM
Structure (SMILES) = CC[C@H](C)[C@H](NC(=O)CN)C(=O)N[C@@H](C)C(=O)N[C@@H](CCCCN)C(=O)N[C@@H](C)C(=O)N[C@H](C(=O)N[C@@H](CCCCN)C(=O)N[C@@H](CCCCN)C(=O)N[C@H](C(=O)N[C@@H](C)C(=O)N[C@@H](CCCCN)C(=O)N[C@@H](C)C(=O)N[C@@H](CC(C)C)C(=O)NCC(N)=O)[C@@H](C)CC)[C@@H](C)CC; test system = ATCC 90029, RPMI MOPS; conditions = 24 h, pH 7.0, 33 °C; MIC = 64 µg/mL
Structure (SMILES) = CC[C@H](C)[C@H](NC(=O)[C@H](CCCCN)NC(=O)[C@@H](NC(=O)[C@@H](NC(=O)[C@H](CC(C)C)NC(=O)[C@H](CCCNC(=N)N)NC(=O)[C@@H](NC(=O)[C@H](CC(C)C)NC(=O)[C@H](CCCNC(=N)N)NC(=O)CNC(=O)[C@H](Cc1ccccc1)NC(=O)[C@@H](N)CCCNC(=N)N)[C@@H](C)CC)[C@@H](C)CC)C(C)C)C(=O)N[C@@H](C)C(=O)N[C@@H](CCCNC(=N)N)C(=O)N[C@@H](CCCNC(=N)N)C(=O)N[C@@H](C)C(=O)N[C@@H](Cc1c[nH]cn1)C(=O)N[C@@H](CCCNC(=N)N)C(=O)N[C@@H](C)C(=O)N[C@@H](CCCNC(=N)N)C(=O)N[C@@H](CO)C(=O)N[C@@H](C)C(=O)N[C@H](C(=O)N[C@@H](CCCCN)C(=O)N[C@@H](C)C(=O)N[C@@H](C)C(=O)N[C@@H](CO)C(=O)N[C@@H](CC(N)=O)C(=O)N[C@H](C(=O)N[C@@H](C)C(=O)N[C@@H](CCC(=O)O)C(=O)N[C@@H](CC(C)C)C(=O)N[C@@H](C)C(=O)N[C@@H](Cc1c[nH]cn1)C(=O)NCC(=O)N[C@@H](CCC(=O)O)C(=O)O)C(C)C)C(C)C; assay = broth microdilution; conditions = 36 h, 35 °C; MIC = > 8.01 µM
Structure (SMILES) = CC[C@H](C)[C@H](NC(=O)[C@@H](NC(=O)[C@H](C)NC(=O)[C@@H](N)CCCNC(=N)N)C(C)C)C(=O)N[C@@H](CCCNC(=N)N)C(=O)N[C@@H](Cc1c[nH]c2ccccc12)C(=O)N[C@@H](Cc1c[nH]c2ccccc12)C(N)=O; MIC = 128 µg/mL
Structure (SMILES) = CC[C@H](C)[C@H](NC(=O)[C@H](CCCNC(=N)N)NC(=O)[C@H](Cc1c[nH]c2ccccc12)NC(=O)[C@H](CCCNC(=N)N)NC(=O)[C@H](Cc1c[nH]c2ccccc12)NC(=O)[C@H](Cc1c[nH]c2ccccc12)NC(=O)[C@H](Cc1c[nH]c2ccccc12)NC(=O)[C@H](CCCNC(=N)N)NC(=O)[C@H](Cc1c[nH]c2ccccc12)NC(=O)[C@H](CCCNC(=N)N)NC(=O)CN)C(N)=O; assay = broth microdilution; test system = CGMCC 2.209, RPMI 1640-MOPS; conditions = 48 h, 30 °C, added: KCl 4.5 mM; MIC = 8 µM
Structure (SMILES) = C#Cc1ccc(O)c(C=NNC(=O)c2ccc(C3(C(F)(F)F)N=N3)cc2)c1; test system = A39; conditions = 48 h; MIC = 1 µg/mL
Structure (SMILES) = CC[C@H](C)[C@H](NC(=O)CN)C(=O)NCC(=O)N[C@@H](C)C(=O)N[C@H](C(=O)N[C@@H](CC(C)C)C(=O)N[C@@H](CCCCN)C(=O)N[C@H](C(=O)N[C@@H](CC(C)C)C(=O)N[C@H](C(=O)N[C@H](C(=O)NCC(=O)N[C@@H](CC(C)C)C(=O)N1CCC[C@H]1C(=O)N[C@@H](C)C(=O)N[C@@H](CC(C)C)C(=O)N[C@H](C(=O)N[C@@H](CO)C(=O)N[C@@H](Cc1c[nH]c2ccccc12)C(=O)N[C@H](C(=O)N[C@@H](CCCCN)C(=O)N[C@@H](CCCNC(=N)N)C(=O)N[C@@H](CCCCN)C(=O)N[C@@H](CCCNC(=N)N)C(=O)N[C@@H](CCC(N)=O)C(=O)N[C@@H](CCC(N)=O)C(N)=O)[C@@H](C)CC)[C@@H](C)CC)[C@@H](C)O)[C@@H](C)O)C(C)C)C(C)C; assay = broth microdilution; test system = CGMCC 2.209, RPMI 1640-MOPS; conditions = 48 h, 30 °C; MIC = 4 µM
Structure (SMILES) = CC(C)C[C@H](NC(=O)[C@H](Cc1c[nH]c2ccccc12)NC(=O)[C@H](CC(C)C)NC(=O)[C@@H](NC(=O)[C@H](CC(C)C)NC(=O)[C@H](CCCNC(=N)N)NC(=O)[C@@H](N)CCCNC(=N)N)[C@@H](C)O)C(=O)N[C@H](C(=O)N[C@@H](CC(C)C)C(=O)N[C@@H](CCCNC(=N)N)C(=O)N[C@@H](CCCNC(=N)N)C(N)=O)[C@@H](C)O; test system = alveolar fluid isolate, RPMI MOPS; conditions = 48 h, 37 °C; MIC = 4 µM
Structure (SMILES) = C[C@H](NC(=O)[C@H](CCCNC(=N)N)NC(=O)[C@H](Cc1c[nH]c2ccccc12)NC(=O)[C@H](CCCNC(=N)N)NC(=O)[C@H](Cc1c[nH]c2ccccc12)NC(=O)[C@H](Cc1c[nH]c2ccccc12)NC(=O)[C@H](Cc1c[nH]c2ccccc12)NC(=O)[C@H](CCCNC(=N)N)NC(=O)[C@H](Cc1c[nH]c2ccccc12)NC(=O)[C@H](CCCNC(=N)N)NC(=O)CN)C(N)=O; assay = broth microdilution; test system = 56452, RPMI 1640-MOPS; conditions = 48 h, 30 °C; MIC = 8 µM
Structure (SMILES) = OC(Cn1cncn1)(Cn1cncn1)c1ccc(F)cc1F; test system = 2.209; conditions = before resistance passaging; MIC = 4 µM

Excerpt of the above:
Structure (SMILES) = CC[C@H](C)[C@H](NC(=O)[C@H](CCCNC(=N)N)NC(=O)[C@H](Cc1c[nH]c2ccccc12)NC(=O)[C@H](CCCNC(=N)N)NC(=O)[C@H](Cc1c[nH]c2ccccc12)NC(=O)[C@H](Cc1c[nH]c2ccccc12)NC(=O)[C@H](Cc1c[nH]c2ccccc12)NC(=O)[C@H](CCCNC(=N)N)NC(=O)[C@H](Cc1c[nH]c2ccccc12)NC(=O)[C@H](CCCNC(=N)N)NC(=O)CN)C(N)=O; assay = broth microdilution; test system = CGMCC 2.209, RPMI 1640-MOPS; conditions = 48 h, 30 °C, added: KCl 4.5 mM; MIC = 8 µM
Structure (SMILES) = C#Cc1ccc(O)c(C=NNC(=O)c2ccc(C3(C(F)(F)F)N=N3)cc2)c1; test system = A39; conditions = 48 h; MIC = 1 µg/mL
